Published values gathered from unrelated publications.
Parts stem from different laboratories: compare values within a part only.

Block 1
Target: Protein max, full length (MAX, Homo sapiens, UniProt P61244-2, residues 1-151)
Method: protein-binding microarray
Molecule type: double-stranded DNA, one strand shown
Medium: in vitro
Tested at: not given
Notes: k-mer, scored over probes, only values ≥0.25
Reading: higher = stronger binding
Sequence | E-score
CCCCATGA | 0.3
CCGTGTTA | 0.271
ACACGTTG | 0.444
CACCTGTA | 0.298
ACGCCCGC | 0.293
CGTGTAAG | 0.321
GGCACCAC | 0.255
CCCATGGG | 0.289
CACACGAG | 0.412
CACGAGAA | 0.356
CGTGGGAA | 0.384
GCGTGCAC | 0.434
ATGTGATC | 0.365
GCGTGCGA | 0.401
CACACGGG | 0.335
ACATGCAG | 0.344
ATGGCCAC | 0.335
ATGCTCAC | 0.258
GTGGCAGA | 0.271
ACATGGCA | 0.385
CATGGAGC | 0.265
CAGCATGG | 0.458
ACGTGAAG | 0.309
CATGCGCC | 0.439
AAAGCACA | 0.312

Block 2
Target: Prothrombin, mature alpha-thrombin (F2, Homo sapiens, UniProt P00734)
Method: aptamer microarray, sandwich
Molecule type: DNA with 2'F-ANA
Medium: in vitro
Tested at: 200 nM
Notes: whole 15-mer aptamer, many near background
With: Cy3 exosite-II aptamer, 400 nM
Reading: higher = stronger binding
Sequence: GGTTGGTGTGGTTGG
Modification | mean fluorescence intensity [a.u.]
2'F-ANA at 1 2 3 4 5 7 8 9 10 11 13 | 47.3
2'F-ANA at 1 4 9 11 12 13 15 | 153
2'F-ANA at 1 2 4 5 7 11 12 13 | 64.9
2'F-ANA at 2 6 11 12 13 15 | 443
2'F-ANA at 1 6 8 10 12 15 | 86.6
2'F-ANA at 3 5 6 9 10 11 13 14 | 47.9
2'F-ANA at 9 10 11 13 15 | 125
2'F-ANA at 2 4 6 7 9 10 11 14 | 195
2'F-ANA at 1 2 3 5 7 9 11 12 15 | 97.2
2'F-ANA at 4 5 7 10 13 | 45.4
2'F-ANA at 1 2 3 4 8 9 10 11 13 14 | 57.8
2'F-ANA at 7 8 9 14 15 | 234
2'F-ANA at 2 6 7 10 12 13 14 | 100
2'F-ANA at 2 3 4 5 6 8 12 13 14 | 51.8
2'F-ANA at 1 3 5 6 10 11 12 13 14 | 75.5
2'F-ANA at 2 3 4 5 9 11 15 | 75.5
2'F-ANA at 7 8 10 11 12 15 | 192
2'F-ANA at 2 8 12 | 899
2'F-ANA at 2 4 5 7 8 9 12 13 15 | 101

Block 3
Target: RNA binding protein fox-1 homolog 2, RRM domain, GST-SBP tag (RBFOX2, Homo sapiens, UniProt O43251-10, residues 100-194)
Method: RNA Bind-n-Seq
Molecule type: RNA
Medium: in vitro
Tested at: 365 nM
Notes: natural RNA segment, single round, ends assumed
Baseline: no-protein control
Reading: higher = stronger binding
Residues (chain): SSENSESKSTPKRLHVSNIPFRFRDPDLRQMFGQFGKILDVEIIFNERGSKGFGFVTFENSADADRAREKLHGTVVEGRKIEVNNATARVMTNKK
Sequence | RBNS enrichment (R)
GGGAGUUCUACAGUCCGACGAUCUUCUCCGGGAUGCAUAGAUUCAUGAUUUAUCUACUUUUGAAAUGUGGGCUUCUUCAUCUUUACGUUCUAGACUCCAAUUUUGUCCAAUGUAUAUAGAAUCUCCAUAUUAAUGGAAUUCUCGGGUGCCAA | 0.418
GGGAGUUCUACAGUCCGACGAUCGGGUUUGUUUUGCGCUCUCCUGUCACAAAUGCUGCACUAUUGGUUCUUAAGUUUUUUAUCUCCAGAUCCUAAUUUAUGCCUAUGCAAAAAAUAAAUGACGCCCAAGAGCUUGGAAUUCUCGGGUGCCAA | 0.435
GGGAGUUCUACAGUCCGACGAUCUCCUAAAGUAUUUGUUUUUAUUUGUACCAUCCACUUGUGCCUUACUGUAUCCUGUGUCAUGUCCAAUCAGUUGUAAACAAUGGCAUCUUUGAACAGUGUGAUGAGAAUAGUGGAAUUCUCGGGUGCCAA | 1.61
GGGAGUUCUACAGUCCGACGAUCUGAGGGCCACCAAUGGAAGAGCCCGCCCUUCAUUCUGCAGCUCCUGCGGCCAGGCUGAGCUCUGCCCCCAACUUUGUUUUCUCUCAUGUUCUCAAUACACUCUGCCUCAAUGGAAUUCUCGGGUGCCAA | 0.697
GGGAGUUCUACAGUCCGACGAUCCAACCACCCUGGGCCCAGAAACAGAGGCCUGCCGAGGGGAGGAGCCUGGCCUCUGUCCACCCGUCAGCAGUGUGAAGUCUGUUGUGUUUGAGCUUCUCAGAGUGGAAUGAUGGAAUUCUCGGGUGCCAA | 1.4
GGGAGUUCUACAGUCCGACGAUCGGCCCGGGCGUGCACUAGGCGGGGCAAGAGGAAGCACGUCCCCAAGUUGAUUGUAGUUGUCCCGUCCUGUGGGCUGGCUCACUGUCCUGUGUCCUUUGCGUUCCUCGUUUUGGAAUUCUCGGGUGCCAA | 0.948
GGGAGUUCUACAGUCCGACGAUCCUUUAUGCUCCUGUAAUCGGCUAACUGUGGAUUUGAUGUCAAGUAUGCAUGUUACCUUAUGUGUAUUUAAUCAUGAAACUUAAUUUUUGCACACUUGUUUGUACUGUUUUUGGAAUUCUCGGGUGCCAA | 3.55
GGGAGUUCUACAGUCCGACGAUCCACUUUAUUUAAAGGCAAGCAAUAUUUUCUUGAUCAUAAAUAUUUUGUAAUGAAAUACUUCCUCUUUUCCAGGGCUUUGUAUGCACUUGUAUAAUUACAUUGAUGGCAAUUGGAAUUCUCGGGUGCCAA | 0.718
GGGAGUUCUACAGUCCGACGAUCGCUUAUUUAUUAAUCUUGAUUUAAUACGUUCUCUUCCCAAGCUGGAAGAUCCUCUUUCCAGGCCUCUCUAACCAAGUCUCAAAUAUCCAGGCAGAGUUUUAGUAUGACAUUGGAAUUCUCGGGUGCCAA | 0.369
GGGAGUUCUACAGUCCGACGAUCGGAUUACAGGCAUGAGCCACCGUGGCCGGCCAAGAUUUUAAGCCUUCUGAGCCUUGAAAUUGAGGAGGUUAAAAGGAAGAGCCUUAAGAUUUUGAUUUAUGUCAAAUCCUUGGAAUUCUCGGGUGCCAA | 0.325
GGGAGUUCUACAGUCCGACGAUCUUAUAUAUCACCCUUUAGAUCUUGAUUUCUUGGUCAUUUCUCAACCUGAGGUGCAUAGCAUAUUCCCACAUUCCAUUUGGUAGCAAUAUGCGGUCUGAAUGCAUGCAUUCUGGAAUUCUCGGGUGCCAA | 2.61
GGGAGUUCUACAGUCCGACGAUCCGUUUGUAAACUGCUUGAAGUCUGUGGCAUUCAGGCACACGUCUGGCUGGCCGGCUGGGUCUCCUCCCGGGCUCAGUGGGCCUGGGGCCUCUCUGACGUGGUGCCUGCUGUGGAAUUCUCGGGUGCCAA | 0.931

Block 4
Target: Histone acetyltransferase KAT6A, winged helix 1, GST fusion (KAT6A, Homo sapiens, UniProt Q92794, residues 1-85)
Method: protein binding microarray
Molecule type: double-stranded DNA, one strand shown
Medium: in vitro
Tested at: not given
Notes: 8-mer, flanks averaged, mean of 2 arrays, mostly near background
Baseline: not given
Reading: higher = stronger binding
Residues (chain): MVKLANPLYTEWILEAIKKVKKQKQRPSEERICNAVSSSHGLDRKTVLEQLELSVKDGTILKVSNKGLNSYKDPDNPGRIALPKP
Sequence | E-score
GTAATTAC | 0.13
CACGCTTA | 0.108
CACGTATG | -0.0803
GCTCTAAA | -0.0645
AACACGAT | -0.116
GCCCCTTA | 0.0545
TCAGTAGA | -0.0832
AAGGAAGC | -0.0904
ATTCCACC | -0.187
AAGTCCAC | -0.299
AAGGGGGC | 0.0273
ATAGCCAC | -0.102
TGTTTCAA | -0.119
ACACTCGT | -0.242
GGCGGGAC | 0.375
ACAAGTTG | -0.0922
CCTGTGCG | 0.055
ACTCAGAG | -0.0591
CATTGTAG | -0.118
GGGCATAC | 0.0137
CCAATTGA | -0.175
GAGATAGC | -0.0938
ACTGTGAG | -0.184
CGGTGCGA | 0.196

Block 5
Target: Fragile X messenger ribonucleoprotein 1, C-terminal low-complexity region (Fmr1, Mus musculus, UniProt P35922)
Method: RNA Bind-n-Seq
Molecule type: RNA
Medium: in vitro
Tested at: 200 nM
Notes: whole 134-nt RNA, ends assumed
With: 150 mM LiCl
Baseline: input library
Reading: higher = stronger binding
Library: 7-deaza-guanosine replaces G
Sequence | log2 enrichment
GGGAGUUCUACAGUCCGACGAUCCCUGUGCUACACAUCGUAUGUACCGAAUCGGUUUUUUGGGGUUUUUUGGGGUUUUUUGGGGAAAGUAUUAUGUUACGCCGUUCGGAUCUGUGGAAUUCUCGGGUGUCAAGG | -0.345
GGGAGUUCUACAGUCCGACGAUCUCAAGUCCUGUGCUACACAUCGUAUGUACCGAAUCGGGAGGGAAAGGGUUUGGGAAAGUAUUAUGUUACGCCGUUCGGAUCUGCACUUCCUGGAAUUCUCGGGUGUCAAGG | -1.45
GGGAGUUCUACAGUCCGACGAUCGCAGGAAGUAAAAACAAAUGGAAAUGCUUCGGACAGUGGCAGGGGUGGGGGUUGCUAAGGAAAGGGUGGGAUGGGAGUGGGUAAAGAGUUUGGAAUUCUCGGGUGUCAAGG | 1.39
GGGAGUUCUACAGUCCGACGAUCCACAGACAACACGCACCCACACAGACACAGAGGGAAGAGGUUGGGAUGGGGACAGGGUGCACAGCAGGGCGGGGUAGGACCCCAGCCCCUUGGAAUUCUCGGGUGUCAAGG | -0.625
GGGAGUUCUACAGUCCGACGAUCAGUCCUGUGCUACACAUCGUAUGUACCGAAUCAAACCCAAACCCCCCCAAAUUUAAAAAAGUAUUAUGUUACGCCGUUCGGAUCUGCACUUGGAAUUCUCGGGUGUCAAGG | 1.17
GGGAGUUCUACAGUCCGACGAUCCCUCAAGUCCUGUGCUACACAUCGUAUGUACCGAAUCGGGGUGGUGGGUGGGAAAGUAUUAUGUUACGCCGUUCGGAUCUGCACUUCCAGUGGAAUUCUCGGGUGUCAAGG | -0.372
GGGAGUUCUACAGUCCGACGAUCUGGGAGGUGGAUUUUGUUUAUUUUUUUAGCUCAUUUCCAGGGGUGGGAAUUUUUUUUUAAUAUGUGUCAUGAAUAAAGUUGUUUUUGAACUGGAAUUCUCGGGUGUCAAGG | -0.438
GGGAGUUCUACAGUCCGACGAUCUCAAGUCCUGUGCUACACAUCGUAUGUACCGAAUCGGAAAAAGGUGGAAAAAGGAAAGUAUUAUGUUACGCCGUUCGGAUCUGCACUUCCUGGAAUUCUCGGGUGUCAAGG | -0.601
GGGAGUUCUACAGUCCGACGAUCGUCCUGUGCUACACAUCGUAUGUACCGAAUCAAACCCAAACCCCCAAACCCCCCCAAAAAAGUAUUAUGUUACGCCGUUCGGAUCUGCACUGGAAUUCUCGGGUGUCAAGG | 0.536
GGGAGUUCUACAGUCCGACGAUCCUGUGCUACACAUCGUAUGUACCGAAUCGGGGUUUUUGGGGAAAAAGGGGAAAAAAAGGGGAAAGUAUUAUGUUACGCCGUUCGGAUCUGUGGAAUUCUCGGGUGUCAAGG | -0.324
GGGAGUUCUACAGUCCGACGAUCUCCUGUGCUACACAUCGUAUGUACCGAAUCGGAAAAAAAGGGAAAAAAAGGAAAAAAAGGAAAGUAUUAUGUUACGCCGUUCGGAUCUGCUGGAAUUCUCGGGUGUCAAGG | -0.41

A few entries again (block 4):
Sequence | E-score
GCTCTAAA | -0.0645
TCAGTAGA | -0.0832
GGCGGGAC | 0.375
ACTGTGAG | -0.184
AACACGAT | -0.116
GTAATTAC | 0.13
ATAGCCAC | -0.102
GCCCCTTA | 0.0545
